# Assay results from different studies.
# Parts stem from different laboratories: compare values within a part only. Substitutions count along the parent as printed.

# Set 1
# Target: Sal-like protein 4, full length isoform B (SALL4, Homo sapiens, UniProt Q9UJQ4-2, residues 1-616)
# Method: universal PBM
# Form: double-stranded DNA, one strand shown
# Medium: in vitro
# Concentration: not given
# Setting: 8-mer, flanks averaged, mean of replicates
# Reading: higher = stronger binding
# Residues (chain): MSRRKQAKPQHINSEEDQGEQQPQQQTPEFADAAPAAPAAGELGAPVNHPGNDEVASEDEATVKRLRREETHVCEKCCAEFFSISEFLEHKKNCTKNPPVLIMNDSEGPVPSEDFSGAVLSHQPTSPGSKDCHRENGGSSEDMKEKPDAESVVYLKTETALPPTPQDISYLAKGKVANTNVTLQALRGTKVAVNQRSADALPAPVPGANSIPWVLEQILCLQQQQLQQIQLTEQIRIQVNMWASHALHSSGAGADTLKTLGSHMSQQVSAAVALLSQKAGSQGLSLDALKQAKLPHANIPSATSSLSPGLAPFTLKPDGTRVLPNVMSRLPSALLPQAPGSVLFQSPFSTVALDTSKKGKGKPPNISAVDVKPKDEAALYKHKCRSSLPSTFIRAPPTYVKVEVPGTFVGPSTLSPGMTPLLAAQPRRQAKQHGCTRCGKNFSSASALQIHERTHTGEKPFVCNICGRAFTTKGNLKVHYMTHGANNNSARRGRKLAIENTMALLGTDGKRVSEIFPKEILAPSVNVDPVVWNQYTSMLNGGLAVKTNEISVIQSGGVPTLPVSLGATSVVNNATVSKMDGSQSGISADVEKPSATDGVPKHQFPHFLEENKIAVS
Strand,E-score
CCCGCCGA,-0.333
CAGAATCG,-0.126
GACTCCCC,-0.248
ACACGGAG,-0.043
CAACACAG,-0.188

# Set 2
# Target: CCNA2, cyclin fold, Cln2 fusion (human)
# Method: yeast growth competition, sequencing
# Medium: yeast
# Setting: strong parent motif
# Relative to: not given
# Reading: higher = stronger binding
# Starting sequence: CDKN1B docking peptide (human); PSACRNLFGPVDH
Substitution,normalised enrichment score
F8G,-0.0859
G9D,1.93
F8V,-0.468
S2V,3.13
G9L,2.16

# Set 3
# Target: RNA binding protein fox-1 homolog 2, RRM domain, GST-SBP tag (RBFOX2, Homo sapiens, UniProt O43251-10, residues 100-194)
# Method: RNA Bind-n-Seq
# Form: RNA
# Medium: in vitro
# Concentration: 365 nM
# Setting: natural RNA segment, single round, ends assumed
# Relative to: no-protein control
# Reading: higher = stronger binding
# Construct (chain): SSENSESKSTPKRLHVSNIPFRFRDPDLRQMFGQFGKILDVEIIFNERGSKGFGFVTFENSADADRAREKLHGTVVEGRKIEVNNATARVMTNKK
Strand,RBNS enrichment (R)
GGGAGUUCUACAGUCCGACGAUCAGACUGGUGACAGAGUUCCUGUCUAACUGUCCUUUAUUUGAAAUAAACUGAGCUGAGUUGGUCUCUAUCUUCCUUGUAGCUGCCUUGUUCACUGUGUUUUGACUCUCACUUGGAAUUCUCGGGUGCCAA,0.318
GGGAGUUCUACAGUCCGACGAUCGCCUCUGCUCCAGGCAAGGCAGCUGGCUCUGUCUGGGGCAUCGGCCUGGGGCUUGGGUGCCACGUGCUGAGAUUGCAUAGUCAAAACAGCCAUUUUUGCCAACAAUAGCUUGGAAUUCUCGGGUGCCAA,0.27
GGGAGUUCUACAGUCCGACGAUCACCAAAUAGAAAUGUAUAUUUUAUUAUGCAAUGCCUUAGUCAUAAACUGGGCUCAAACAAUCCUCAGCCUAAAACACUGUUGUCUUUUAAUAUGCUUCCAACCCAAAGGCUGGAAUUCUCGGGUGCCAA,0.436
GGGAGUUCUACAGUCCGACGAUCAUUUCCCAAUUAGUCUGUAUCUAUACUUGGGCUCUGUAUGUGAAUGAAGGUUGGUCACCCAUCCAGCCUAUUACCUUUUGCUUUGUGUAUUAAAAGUGCUGCAAAAUCUGUGGAAUUCUCGGGUGCCAA,0.638
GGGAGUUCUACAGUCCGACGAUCACAGUAUGCCCUGCCUUCCCUGGGCCAAAAGAAAUCCGUGCUGUCACUGAUGCUGGCGAUGAUGCAGAGCUGUCGCUGCCCUCAGCUCCUGCUGGCUUGUUUAUCAGGGAUGGAAUUCUCGGGUGCCAA,0.269
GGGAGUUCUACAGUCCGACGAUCUAUCUCCCUUUCCUUCACUCAAGGGCCAUUUCCCCAGUCCCUAUCUCCCCCAUCCCCUCCCGGCUUAUAGGCCCCACAGGUGCUAUUUGUUGUGCUGGCCCAGGCGUGGGUGGAAUUCUCGGGUGCCAA,1.02

# Mixed results
Substance,target,test,test system,conditions,scale,endpoint,value
"PhoQ, residues 284 288 289 292 302 303 AGGCYF","PhoP, residues 12 14 15 18 19 NQAHL (Escherichia coli, UniProt P23836)","Sort-seq, refers to: YFP reporter",E. coli,"PhoQ-PhoP variant library, added: 10 µM Mg2+","relative to: high Mg2+ state, higher = stronger signaling",fold induction,1.19

# For quick reference, copied from above (set 3):
Strand,RBNS enrichment (R)
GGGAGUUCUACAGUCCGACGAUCAUUUCCCAAUUAGUCUGUAUCUAUACUUGGGCUCUGUAUGUGAAUGAAGGUUGGUCACCCAUCCAGCCUAUUACCUUUUGCUUUGUGUAUUAAAAGUGCUGCAAAAUCUGUGGAAUUCUCGGGUGCCAA,0.638
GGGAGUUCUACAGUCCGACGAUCACAGUAUGCCCUGCCUUCCCUGGGCCAAAAGAAAUCCGUGCUGUCACUGAUGCUGGCGAUGAUGCAGAGCUGUCGCUGCCCUCAGCUCCUGCUGGCUUGUUUAUCAGGGAUGGAAUUCUCGGGUGCCAA,0.269
